Results collected from several papers.
Parts stem from different laboratories: compare values within a part only.

Series 1 — technique: protein binding microarray; form: double-stranded DNA, one strand shown; sample: in vitro; tested at: not given; baseline: not given; direction: higher = stronger binding
Target: Histone acetyltransferase KAT6A, winged helix 2, GST fusion (KAT6A, Homo sapiens, UniProt Q92794, residues 85-181)
Notes: 8-mer, flanks averaged, mean of 2 arrays, mostly near background
Construct (chain): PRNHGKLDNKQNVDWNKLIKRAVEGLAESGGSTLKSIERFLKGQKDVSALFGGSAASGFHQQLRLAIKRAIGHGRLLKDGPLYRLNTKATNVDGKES
| Sequence | E-score |
| --- | --- |
| AAGGTACC | 0.0112 |
| GTTCTCTA | 0.0169 |
| GAAAGCAA | 0.202 |
| CTAGCATA | 0.0326 |
| GCACGCGC | 0.0277 |
| CTCCATGC | -0.0201 |
| AAAGTTAC | 0.0696 |
| CCAACGTA | -0.159 |
| AAGTGGAT | -0.0417 |
| ATAGAGTA | -0.0594 |
| GACCTTTA | -0.00143 |
| CCCCGGGC | 0.223 |
| AGAAAGCT | 0.0437 |
| TCGAAAAA | 0.0947 |
| AGGTGCCC | 0.0267 |
| ATTTTGGA | 0.0382 |
| CATTCCTA | -0.141 |

Series 2 — technique: RNA Bind-n-Seq; form: RNA; sample: in vitro; tested at: 365 nM; baseline: no-protein control; direction: higher = stronger binding
Target: RNA binding protein fox-1 homolog 2, RRM domain, GST-SBP tag (RBFOX2, Homo sapiens, UniProt O43251-10, residues 100-194)
Notes: natural RNA segment, single round, ends assumed
Construct (chain): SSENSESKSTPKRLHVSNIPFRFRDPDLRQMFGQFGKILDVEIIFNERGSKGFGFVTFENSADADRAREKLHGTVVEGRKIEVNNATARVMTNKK
| Sequence | RBNS enrichment (R) |
| --- | --- |
| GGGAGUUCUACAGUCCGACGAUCGGCCUCCUCUCUCCAGUGAUGUAAGUGAAUGGAAGCCAUCACUGGCUGCACAUACCUUUUUCAAAAGGGACACUCGGGAAGUCACUGCUGUGACCGUUUCGAUGUUGAUAUGGAAUUCUCGGGUGCCAA | 2.93 |
| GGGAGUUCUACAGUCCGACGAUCUUACGUUACAUUGAAACCUGCUGCUGCUGUGACUGUGAGGAGGGUGGGAGUGUGGAUGGGGAGGAAGGUUCUAGGCUCUCUUAUUUUUCUCAUUUCCCAAUGCCUCUCUGUGGAAUUCUCGGGUGCCAA | 0.664 |
| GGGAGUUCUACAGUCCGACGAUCUCUAGAAAAGUAAAAUCUACUUUUGUAUCAGUGUGAAUAAAGUUAGUGUGUUGUCUGUGCAGCUGCACACGGAUGCCUUUGAGGCGCUGUCUGUCAUGCUUCCGGGCUCCUGGAAUUCUCGGGUGCCAA | 0.259 |
| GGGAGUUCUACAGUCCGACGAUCGAAUUACCAAAUAUGAAGUAUGAAUGUCUUACCCACGGUGAGGCUCUGCCUCCUUCUCUCUGCCUGGUUCUUCAGAAGGCAGUGAAUGGGUCAUAACUGGGACUCCAUCUUGGAAUUCUCGGGUGCCAA | 0.263 |
| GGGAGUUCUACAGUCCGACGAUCCUGGAGGAGACUCAGGAAGCAGAGGCGUCCCUGCCGCUGCCCUUGGCCCUGCAAGCACAUCAUGACCCUUUCUGGCAGCCUCUUGGUGCUCUGGGUAGUGAGGGAUGACCUGGAAUUCUCGGGUGCCAA | 0.404 |
| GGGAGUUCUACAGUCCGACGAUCGUUGAACCUUGCAGUCCUUUCUCUACGCCCGUGGAUUUUGUGGAAACACUUUGCAAUCUCUUUGUCUUUUUUUUUUUUACCAGAACUAGUUACAUUGGAAUGCUUACUGUUGGAAUUCUCGGGUGCCAA | 0.249 |
| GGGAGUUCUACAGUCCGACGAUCCCCCGUUGGUGAUGAAAGGCCUGAAUAUCUCCCAUCCCAGCUGGCCCCACCUCAGCCCCAGCCCUCCCACCAUGAAAGUGGAACCUGUGUGGGCUUCCUCUCUGCCCCAGUGGAAUUCUCGGGUGCCAA | 0.302 |
| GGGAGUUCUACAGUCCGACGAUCUUUGGUUUAUUUUGUUAUUUUGUUUUGUUUUUGUUUUUUUGGUUUCAUUUUGUUUUGGGUUGGUCCAAUUUUAAAAGGAAAUACUACAAUAAAAAUGUUAACCAGAAGGUUGGAAUUCUCGGGUGCCAA | 3.77 |
| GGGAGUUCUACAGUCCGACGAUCCUCUUCUCACUGGAAGAGCAGAGGGAAACCUGGCCGUCGUGUAUUCUCCUUAUGUUUAAAUGCACAGGCUUAUGUUUAAAUGAACAGAUGUAAAACACAAGCCAGACAGAUGGAAUUCUCGGGUGCCAA | 1.43 |
| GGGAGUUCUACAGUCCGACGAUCCUCUCCACACAUCAUUUACUUCAUGCUGUGUACUUAUGUACUGGUUUUUGCAUUUUACUCACUUGAUAAGUCUGCUCCACUGGUUUCAUCAGAUAGACUUGCUGCUACUGUGGAAUUCUCGGGUGCCAA | 0.6 |
| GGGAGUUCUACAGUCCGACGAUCUUACCUUCAGACAUGGUGCCGUGUUGGGAGCAACCUCAGUGGGUUUGCACUACACUCACUCCGUGCUGCAAGUCCAGGGAUACUGUCUGUGGCCACUGAAGUCUCAGGUGUGGAAUUCUCGGGUGCCAA | 0.422 |
| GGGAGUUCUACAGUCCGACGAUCGCUCAACGGUGUGCCAGCUUCUGGGUCAUUCUAUGGGCAAAGAUGCUGCCUUAGUUCAGGUUUGUCAGAAGCAGGGUCUGGAAUGGGGCUUCAGCGAGGGAGUCAGGGAAUGGAAUUCUCGGGUGCCAA | 0.639 |

Series 3 — technique: protein-binding microarray; form: double-stranded DNA, one strand shown; sample: in vitro; tested at: 2200 nM top; notes: 60-bp whole probe; with: salmon DNA 0.4 mg/ml; baseline: random background probes; direction: higher = stronger binding; shared flanks, not repeated: GCCTAGCAC … GTCTTGATTCGCTTGACGCTGCTG
Target: Interferon regulatory factor 7, full length, phosphomimetic (IRF7, Homo sapiens, UniProt Q92985, residues 1-503, S471D/S472D/S475D/S476D/S477D/S483D/S484D/S487D)
Residues (chain): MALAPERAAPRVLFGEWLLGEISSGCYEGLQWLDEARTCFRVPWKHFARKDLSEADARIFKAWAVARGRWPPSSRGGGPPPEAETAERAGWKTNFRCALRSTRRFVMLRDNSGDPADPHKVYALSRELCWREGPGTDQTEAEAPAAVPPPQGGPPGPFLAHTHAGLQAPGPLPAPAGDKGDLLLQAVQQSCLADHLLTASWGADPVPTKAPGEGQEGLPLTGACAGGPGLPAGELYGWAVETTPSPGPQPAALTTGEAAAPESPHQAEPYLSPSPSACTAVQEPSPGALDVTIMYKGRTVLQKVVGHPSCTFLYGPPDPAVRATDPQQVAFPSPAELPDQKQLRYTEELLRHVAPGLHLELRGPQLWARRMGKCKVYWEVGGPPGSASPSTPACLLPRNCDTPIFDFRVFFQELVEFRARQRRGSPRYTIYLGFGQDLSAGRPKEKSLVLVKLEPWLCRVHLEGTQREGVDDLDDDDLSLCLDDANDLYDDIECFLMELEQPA
| Sequence | fitted relative affinity |
| --- | --- |
| GACGGTATCGGCTTCGGGACGTGCTAG | -0.109 z-score |
| TCAGCTATGTTGTCCAGGACTGTGCTA | 0.441 z-score |
| GACGAACTGAGTCTCGAGCCGTGCTAG | 0.0319 z-score |
| GACGGCTCCGGTTTCGGGACGTGCTAG | 2.52 z-score |
| CTCATTCTCTGCTTCTGTATGTGCTAG | 2.36 z-score |
| TTAGATATCAGTTTTGATTAGTGCTAG | 0.605 z-score |
| TTAGGTATCGGTCTCGATTAGTGCTAG | 0.498 z-score |
| GACGAACTGGGAACTGGAGACGTGCTA | -0.333 z-score |
| GTGTATATACTATATGCATGTGTGCTA | 0.831 z-score |
| TTAGGTATCGGTCTCAGTTAGTGCTAG | 0.927 z-score |
| GACGAGTTCGGGTTTCGAGACGTGCTA | 1.89 z-score |
| GACGGTCTTGGACTGGGGACGTGCTAG | -0.739 z-score |
| GACGAACTGAGTCTTGAGACGTGCTAG | -0.000679 z-score |
| TCATCATTTTCTCTGTTACTGTGCTAG | 2.37 z-score |
| GACGGTATCGGACTGGGGAGGTGCTAG | -0.15 z-score |
| TTAGGTATCGGGATCGGTTAGTGCTAG | 0.643 z-score |
| GATGGTCTCGGTATCGGGACGTGCTAG | 0.326 z-score |
| TCACTTTTCATGCTCTTACTGTGCTAG | 3.19 z-score |
| ATTGTTTTCAGTTTCACTGCGTGCTAG | 6.32 z-score |
| GACGGACTGATTCTCCTGACGTGCTAG | 0.212 z-score |
| TTAGGACTGGGTCTCTGTTAGTGCTAG | -0.109 z-score |
| CATCATTGCCTATTTTTCACCGTGCTA | 1.7 z-score |
| TCATGTAACTCCTATCCAACTGTGCTA | 1.4 z-score |
| GACGGTTTCGGTTTCAGGACGTGCTAG | 13.2 z-score |
| GACGGTCTCGGGTATCGGGACGTGCTA | -0.349 z-score |

Series 4 — technique: aptamer microarray, sandwich; form: DNA with 2'F-ANA; sample: in vitro; tested at: 200 nM; with: Cy3 exosite-II aptamer, 400 nM; direction: higher = stronger binding; sequence: GGTTGGTGTGGTTGG
Target: Prothrombin, mature alpha-thrombin (F2, Homo sapiens, UniProt P00734)
Notes: whole 15-mer aptamer, many near background
| Modification | mean fluorescence intensity |
| --- | --- |
| 2'F-ANA at 1 3 5 7 10 13 14 15 | 48.4 a.u. |
| 2'F-ANA at 1 4 5 6 8 10 12 14 15 | 57.5 a.u. |
| 2'F-ANA at 2 3 5 7 9 10 11 14 15 | 63.4 a.u. |
| 2'F-ANA at 3 6 9 10 12 13 | 519 a.u. |
| 2'F-ANA at 2 3 4 6 7 9 14 15 | 228 a.u. |
| 2'F-ANA at 1 3 9 10 11 12 13 | 173 a.u. |
| 2'F-ANA at 1 5 7 9 10 11 14 15 | 48.4 a.u. |
| 2'F-ANA at 3 5 9 10 11 12 13 14 15 | 101 a.u. |
| 2'F-ANA at 1 2 4 6 9 11 12 14 | 52 a.u. |
| 2'F-ANA at 4 6 8 9 10 15 | 319 a.u. |
| 2'F-ANA at 4 5 9 12 13 15 | 74.9 a.u. |
| 2'F-ANA at 3 4 5 6 8 9 11 12 13 14 | 186 a.u. |
| 2'F-ANA at 1 3 5 7 9 10 13 14 | 57.6 a.u. |
| 2'F-ANA at 1 2 3 5 7 12 | 144 a.u. |
| 2'F-ANA at 3 4 5 6 8 10 12 14 15 | 53 a.u. |
| 2'F-ANA at 1 4 8 9 10 11 14 15 | 46.1 a.u. |
| 2'F-ANA at 1 5 6 8 9 12 13 14 | 46.1 a.u. |
| 2'F-ANA at 1 3 6 8 9 11 14 | 80.6 a.u. |
| 2'F-ANA at 2 4 5 8 12 13 | 106 a.u. |
| 2'F-ANA at 2 6 7 8 10 12 13 14 | 85 a.u. |
| 2'F-ANA at 1 2 4 7 8 9 10 11 15 | 60.5 a.u. |
| 2'F-ANA at 1 2 4 7 8 9 10 12 14 | 44.2 a.u. |
| 2'F-ANA at 11 12 13 14 | 263 a.u. |
| 2'F-ANA at 2 6 7 9 12 14 | 148 a.u. |
| 2'F-ANA at 5 7 8 12 14 15 | 49.3 a.u. |

Repeated from above (series 3):
| Sequence | fitted relative affinity |
| --- | --- |
| GTGTATATACTATATGCATGTGTGCTA | 0.831 z-score |
| GACGGTTTCGGTTTCAGGACGTGCTAG | 13.2 z-score |
| TCAGCTATGTTGTCCAGGACTGTGCTA | 0.441 z-score |
| TCACTTTTCATGCTCTTACTGTGCTAG | 3.19 z-score |
| CATCATTGCCTATTTTTCACCGTGCTA | 1.7 z-score |
| TTAGGTATCGGGATCGGTTAGTGCTAG | 0.643 z-score |
